Assay results from different studies.
Each numbered part is a random draw from the data of one study; scales do not carry over between parts.
UniProt Q08881, sequence (whole entry, looked up): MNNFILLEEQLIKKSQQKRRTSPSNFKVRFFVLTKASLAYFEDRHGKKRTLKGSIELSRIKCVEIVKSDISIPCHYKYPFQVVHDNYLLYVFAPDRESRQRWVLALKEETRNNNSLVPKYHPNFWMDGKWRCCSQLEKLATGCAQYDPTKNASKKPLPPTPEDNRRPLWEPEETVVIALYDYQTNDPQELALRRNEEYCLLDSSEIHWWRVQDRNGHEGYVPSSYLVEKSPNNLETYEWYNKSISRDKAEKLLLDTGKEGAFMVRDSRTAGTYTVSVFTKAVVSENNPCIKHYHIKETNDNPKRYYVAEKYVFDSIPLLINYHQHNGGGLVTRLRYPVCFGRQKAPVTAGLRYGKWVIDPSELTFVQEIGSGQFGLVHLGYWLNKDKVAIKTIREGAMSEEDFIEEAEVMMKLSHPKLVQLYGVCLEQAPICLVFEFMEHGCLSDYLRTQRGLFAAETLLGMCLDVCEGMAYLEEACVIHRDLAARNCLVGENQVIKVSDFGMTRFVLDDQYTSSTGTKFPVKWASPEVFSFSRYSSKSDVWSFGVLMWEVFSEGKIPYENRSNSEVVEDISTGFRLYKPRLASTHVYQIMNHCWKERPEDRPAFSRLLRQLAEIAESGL
UniProt P35590, sequence (whole entry, looked up): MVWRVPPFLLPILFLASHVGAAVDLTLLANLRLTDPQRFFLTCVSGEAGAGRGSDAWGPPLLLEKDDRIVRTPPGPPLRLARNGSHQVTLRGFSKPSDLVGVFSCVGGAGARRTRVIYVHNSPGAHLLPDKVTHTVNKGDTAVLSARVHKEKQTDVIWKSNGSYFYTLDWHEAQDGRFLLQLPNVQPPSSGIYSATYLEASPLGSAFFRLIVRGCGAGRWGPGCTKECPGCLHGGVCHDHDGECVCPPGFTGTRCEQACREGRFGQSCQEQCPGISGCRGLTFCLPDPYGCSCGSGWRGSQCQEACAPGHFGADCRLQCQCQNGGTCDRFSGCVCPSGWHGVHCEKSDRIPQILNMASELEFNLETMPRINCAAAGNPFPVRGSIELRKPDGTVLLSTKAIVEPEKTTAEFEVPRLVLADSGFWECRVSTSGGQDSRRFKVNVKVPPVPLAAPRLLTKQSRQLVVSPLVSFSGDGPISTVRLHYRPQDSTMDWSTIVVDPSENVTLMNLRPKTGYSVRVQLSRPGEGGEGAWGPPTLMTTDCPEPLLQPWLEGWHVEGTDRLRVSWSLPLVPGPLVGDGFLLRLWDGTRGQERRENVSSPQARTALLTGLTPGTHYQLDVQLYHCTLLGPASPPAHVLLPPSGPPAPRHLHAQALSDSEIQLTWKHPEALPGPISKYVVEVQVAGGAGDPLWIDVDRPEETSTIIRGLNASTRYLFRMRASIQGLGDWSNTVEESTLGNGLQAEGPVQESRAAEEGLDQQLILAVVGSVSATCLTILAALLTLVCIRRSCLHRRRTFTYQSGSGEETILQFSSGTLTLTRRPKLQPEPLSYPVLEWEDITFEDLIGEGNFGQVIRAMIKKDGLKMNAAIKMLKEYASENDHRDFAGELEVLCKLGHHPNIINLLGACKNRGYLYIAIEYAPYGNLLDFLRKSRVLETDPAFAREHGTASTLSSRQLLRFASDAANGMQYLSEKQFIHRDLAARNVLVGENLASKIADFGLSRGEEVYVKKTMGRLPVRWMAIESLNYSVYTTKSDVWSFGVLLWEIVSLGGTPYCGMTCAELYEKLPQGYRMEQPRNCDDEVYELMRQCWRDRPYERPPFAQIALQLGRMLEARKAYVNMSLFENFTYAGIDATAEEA
UniProt Q00526, sequence (whole entry, looked up): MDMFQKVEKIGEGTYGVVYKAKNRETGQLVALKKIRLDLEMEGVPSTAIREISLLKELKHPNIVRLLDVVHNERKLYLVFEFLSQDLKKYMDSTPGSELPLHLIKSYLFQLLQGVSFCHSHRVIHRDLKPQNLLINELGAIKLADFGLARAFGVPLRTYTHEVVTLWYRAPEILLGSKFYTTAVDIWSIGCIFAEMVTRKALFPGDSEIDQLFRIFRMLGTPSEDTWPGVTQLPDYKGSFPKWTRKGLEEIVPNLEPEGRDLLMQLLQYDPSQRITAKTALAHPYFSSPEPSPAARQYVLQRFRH
UniProt Q15303, sequence (whole entry, looked up): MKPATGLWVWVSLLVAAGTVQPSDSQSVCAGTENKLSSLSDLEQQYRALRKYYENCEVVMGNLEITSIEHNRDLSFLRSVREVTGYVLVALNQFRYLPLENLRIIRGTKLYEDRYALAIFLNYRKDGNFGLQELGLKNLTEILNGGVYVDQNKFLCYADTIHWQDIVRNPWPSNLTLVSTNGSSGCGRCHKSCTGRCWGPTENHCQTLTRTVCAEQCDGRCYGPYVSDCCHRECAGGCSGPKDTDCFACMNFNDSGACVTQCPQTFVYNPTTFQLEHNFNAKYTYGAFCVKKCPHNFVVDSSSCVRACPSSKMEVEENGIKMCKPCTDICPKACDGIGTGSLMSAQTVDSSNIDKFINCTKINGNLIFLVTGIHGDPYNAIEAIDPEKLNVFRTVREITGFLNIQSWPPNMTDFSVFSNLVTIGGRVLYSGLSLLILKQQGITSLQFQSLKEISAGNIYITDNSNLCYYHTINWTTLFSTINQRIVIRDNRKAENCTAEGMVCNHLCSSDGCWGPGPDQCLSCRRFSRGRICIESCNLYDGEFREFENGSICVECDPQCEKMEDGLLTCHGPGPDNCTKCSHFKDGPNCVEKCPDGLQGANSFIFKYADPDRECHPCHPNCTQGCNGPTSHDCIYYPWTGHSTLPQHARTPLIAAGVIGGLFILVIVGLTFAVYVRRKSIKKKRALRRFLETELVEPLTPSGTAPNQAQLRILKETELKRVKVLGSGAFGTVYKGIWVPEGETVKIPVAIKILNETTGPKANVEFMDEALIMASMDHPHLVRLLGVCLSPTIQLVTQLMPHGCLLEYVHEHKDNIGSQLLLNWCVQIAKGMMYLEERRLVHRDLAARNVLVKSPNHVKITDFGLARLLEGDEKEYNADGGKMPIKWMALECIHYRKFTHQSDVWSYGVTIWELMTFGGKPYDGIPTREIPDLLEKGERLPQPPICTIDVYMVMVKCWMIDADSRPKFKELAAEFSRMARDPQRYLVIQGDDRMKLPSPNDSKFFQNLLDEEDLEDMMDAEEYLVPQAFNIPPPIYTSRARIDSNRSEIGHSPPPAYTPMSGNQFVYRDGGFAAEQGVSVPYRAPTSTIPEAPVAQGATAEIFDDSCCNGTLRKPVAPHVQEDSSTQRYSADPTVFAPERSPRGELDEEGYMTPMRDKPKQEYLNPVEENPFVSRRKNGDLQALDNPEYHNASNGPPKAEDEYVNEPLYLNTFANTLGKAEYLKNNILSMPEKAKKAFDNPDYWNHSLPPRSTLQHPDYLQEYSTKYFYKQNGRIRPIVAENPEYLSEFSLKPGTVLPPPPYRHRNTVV
UniProt P53779, sequence (whole entry, looked up): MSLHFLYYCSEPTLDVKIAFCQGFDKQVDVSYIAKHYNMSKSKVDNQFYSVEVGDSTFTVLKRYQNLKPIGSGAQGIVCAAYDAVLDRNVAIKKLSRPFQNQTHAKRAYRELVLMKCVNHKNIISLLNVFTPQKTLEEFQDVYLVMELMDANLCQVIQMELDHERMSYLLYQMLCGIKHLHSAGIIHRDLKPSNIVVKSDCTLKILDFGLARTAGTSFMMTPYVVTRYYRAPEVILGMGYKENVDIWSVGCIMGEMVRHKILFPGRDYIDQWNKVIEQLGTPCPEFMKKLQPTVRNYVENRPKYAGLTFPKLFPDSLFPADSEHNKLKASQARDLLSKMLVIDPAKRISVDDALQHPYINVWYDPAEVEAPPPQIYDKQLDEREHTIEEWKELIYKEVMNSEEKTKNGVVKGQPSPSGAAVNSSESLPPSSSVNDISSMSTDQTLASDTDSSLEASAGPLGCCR

Sample 1
Target: Dual specificity tyrosine-phosphorylation-regulated kinase 2 (DYRK2, Homo sapiens, UniProt Q92630)
UniProt Q92630, sequence (whole entry, looked up): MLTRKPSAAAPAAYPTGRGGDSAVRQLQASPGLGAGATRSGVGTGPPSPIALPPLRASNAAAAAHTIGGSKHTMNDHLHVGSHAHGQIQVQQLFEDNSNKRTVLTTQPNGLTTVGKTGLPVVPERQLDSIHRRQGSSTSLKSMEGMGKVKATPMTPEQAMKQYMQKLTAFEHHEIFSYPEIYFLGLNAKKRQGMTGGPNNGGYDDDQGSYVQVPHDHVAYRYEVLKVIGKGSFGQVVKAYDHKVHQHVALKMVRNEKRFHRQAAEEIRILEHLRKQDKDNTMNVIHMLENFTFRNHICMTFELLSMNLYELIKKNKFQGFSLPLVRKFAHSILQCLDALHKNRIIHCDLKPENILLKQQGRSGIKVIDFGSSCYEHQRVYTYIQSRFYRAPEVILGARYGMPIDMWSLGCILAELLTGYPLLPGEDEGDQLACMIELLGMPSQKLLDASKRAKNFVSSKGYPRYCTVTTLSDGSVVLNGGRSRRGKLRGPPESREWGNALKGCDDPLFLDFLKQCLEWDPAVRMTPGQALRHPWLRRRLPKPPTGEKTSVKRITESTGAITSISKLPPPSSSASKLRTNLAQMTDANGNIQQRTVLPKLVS
Read-out: enzyme activity
Mode: inhibitor
Tested at: 0.5 µM
Reference: control
Measurement: remaining activity
N#Cc1c(NC(=O)c2cccc3ccccc23)sc2c1CCCC2: 119%
N#C/C(=C\c1ccc(O)c(O)c1)C(=O)NCc1ccccc1: 103%
O=C(NC(NC(=S)Nc1ccc(F)c([N+](=O)[O-])c1)C(Cl)(Cl)Cl)C(c1ccccc1)c1ccccc1 (centres unmarked): 102%
CN([C@@H](Cc1ccc(OS(=O)(=O)c2cccc3cnccc23)cc1)C(=O)N1CCN(c2ccccc2)CC1)S(=O)(=O)c1cccc2cnccc12: 97.7%
C[C@@H]1CCN(C(=O)CC#N)C[C@@H]1N(C)c1ncnc2[nH]ccc12: 112%
O=c1cc(-c2cccc3c2Sc2ccccc2S3)oc(N2CCOCC2)c1: 104%
Cn1nc2c3c(cccc31)C(=O)c1ccccc1-2: 99.5%
Cc1cn(-c2cc(NC(=O)c3ccc(C)c(Nc4nccc(-c5cccnc5)n4)c3)cc(C(F)(F)F)c2)cn1: 101%
CCN(CC)C(=O)c1ccc(Nc2nc(OCC3CCCCC3)c3[nH]cnc3n2)cc1: 98.2%
COc1cc2ncnc(Nc3cccc(Cl)c3)c2cc1OC: 84.6%
Cc1nc2cc3nc(-c4cccs4)cnc3cc2n1C: 104%
CCN(CC)CCNC(=O)c1c(C)[nH]c(/C=C2\C(=O)Nc3ccc(Cl)cc32)c1C: 82.7%
COc1cc2c(cc1OC)-c1[nH]nc(Nc3cccc(F)c3)c1C2: 95.3%
Ic1cccc(CSc2nnc(-c3ccncc3)o2)c1: 96.8%
O=C1c2ccccc2-c2n[nH]c3cccc1c23: 14.2%
O=C1C(Cl)=C(N2C(=O)CCC2=O)C(=O)c2ccccc21: 98.6%
Nc1cccc(-c2cc3c(Oc4cccc(O)c4)ncnc3[nH]2)c1: 76.9%
c1ccc(-c2[nH]ncc2-c2ccnc3ccccc23)nc1: 113%
Cc1cc2ncc(-c3ccccc3)nc2cc1C: 95.9%
c1ccc(-c2cnc(Nc3ccc(OCCN4CCCC4)cc3)s2)cc1: 95%
CCN(CC)CCNC(=O)c1c(C)[nH]c(/C=C2\C(=O)Nc3ccc(F)cc32)c1C: 82.6%
CCOc1nc(NC(=O)Cc2cc(OC)ccc2OC)cc(N)c1C#N: 111%
CN(C)C[C@H]1CCn2c(c(C3=C(c4cn(C)c5ccccc45)C(=O)NC3=O)c3ccccc32)C1: 102%
COc1cc2ncnc(Nc3ccc(O)c(Br)c3)c2cc1OC: 60%

Sample 2
SMILES: Cc1nc(Nc2ncc(C(=O)Nc3c(C)cccc3Cl)s2)cc(N2CCN(CCO)CC2)n1
Mode: inhibitor
Measurement: inhibition
CSNK2A1 (Homo sapiens, UniProt P68400); 10 µM: < 50%
MYLK2 (Homo sapiens, UniProt Q9H1R3); 10 µM: 73%
EPHA5 (Homo sapiens, UniProt P54756); 10 µM: 100%
Non-receptor tyrosine-protein kinase TYK2, JH2 pseudokinase domain (TYK2, Homo sapiens, UniProt P29597); 10 µM: 70%
TXK (Homo sapiens, UniProt P42681); 10 µM: 100%
CAMK2G (Homo sapiens, UniProt Q13555); 10 µM: < 50%
COQ8A (Homo sapiens, UniProt Q8NI60); 1 µM: < 50%
CHEK2 (Homo sapiens, UniProt O96017); 10 µM: < 50%
CSNK1G2 (Homo sapiens, UniProt P78368); 10 µM: < 50%
PRKG1 (Homo sapiens, UniProt Q13976); 10 µM: < 50%
PLK1 (Homo sapiens, UniProt P53350); 1 µM: < 50%
PLK4 (Homo sapiens, UniProt O00444); 1 µM: < 50%
PLK3 (Homo sapiens, UniProt Q9H4B4); 10 µM: < 50%
FGFR2 (Homo sapiens, UniProt P21802); 1 µM: < 50%
ERBB4 (Homo sapiens, UniProt Q15303); 1 µM: 83%
MAPK11 (Homo sapiens, UniProt Q15759); 1 µM: < 50%

Sample 3
Structure (SMILES): FC(F)(F)c1ccc2c(c1)nc(-c1cccnc1)n2C1CC1
Method: competition with immobilised ligand
Tested at: 1 µM
Measurement: remaining binding
MAP3K10 (Homo sapiens, UniProt Q02779); cell-free assay: 100%
AXL (Homo sapiens, UniProt P30530); cell-free assay: 100%
EPHA6 (Homo sapiens, UniProt Q9UF33); cell-free assay: 100%
NIM1K (Homo sapiens, UniProt Q8IY84); cell-free assay: 100%
EPHB4 (Homo sapiens, UniProt P54760); cell-free assay: 100%
Tyrosine-protein kinase ABL1, phosphorylated (ABL1, Homo sapiens, UniProt P00519, E255K); binding: 100%
CDK16 (Homo sapiens, UniProt Q00536); cell-free assay: 100%
TSSK3 (Homo sapiens, UniProt Q96PN8); cell-free assay: 65%
PHKG2 (Homo sapiens, UniProt P15735); cell-free assay: 100%
RET (Homo sapiens, UniProt P07949); cell-free assay: 99%
Ribosomal protein S6 kinase alpha-1, C-terminal kinase domain (RPS6KA1, Homo sapiens, UniProt Q15418); cell-free assay: 100%
TIE1 (Homo sapiens, UniProt P35590); cell-free assay: 100%
MAP2K5 (Homo sapiens, UniProt Q13163); cell-free assay: 96%
MAP3K2 (Homo sapiens, UniProt Q9Y2U5); cell-free assay: 100%
ITK (Homo sapiens, UniProt Q08881); cell-free assay: 100%
ULK3 (Homo sapiens, UniProt Q6PHR2); cell-free assay: 100%
CDK8 (Homo sapiens, UniProt P49336); cell-free assay: 100%
Tyrosine-protein kinase JAK2, JH1 (JAK2, Homo sapiens, UniProt O60674); cell-free assay: 100%
MAPK10 (Homo sapiens, UniProt P53779); cell-free assay: 100%
MAST1 (Homo sapiens, UniProt Q9Y2H9); cell-free assay: 100%
MAPK15 (Homo sapiens, UniProt Q8TD08); cell-free assay: 100%
NEK9 (Homo sapiens, UniProt Q8TD19); cell-free assay: 100%
HUNK (Homo sapiens, UniProt P57058); cell-free assay: 100%
LCK (Homo sapiens, UniProt P06239); cell-free assay: 100%
CDK3 (Homo sapiens, UniProt Q00526); cell-free assay: 100%

Sample 4
Target: Calcium/calmodulin-dependent protein kinase type II subunit alpha (CAMK2A, Homo sapiens, UniProt Q9UQM7)
UniProt Q9UQM7, sequence (whole entry, looked up): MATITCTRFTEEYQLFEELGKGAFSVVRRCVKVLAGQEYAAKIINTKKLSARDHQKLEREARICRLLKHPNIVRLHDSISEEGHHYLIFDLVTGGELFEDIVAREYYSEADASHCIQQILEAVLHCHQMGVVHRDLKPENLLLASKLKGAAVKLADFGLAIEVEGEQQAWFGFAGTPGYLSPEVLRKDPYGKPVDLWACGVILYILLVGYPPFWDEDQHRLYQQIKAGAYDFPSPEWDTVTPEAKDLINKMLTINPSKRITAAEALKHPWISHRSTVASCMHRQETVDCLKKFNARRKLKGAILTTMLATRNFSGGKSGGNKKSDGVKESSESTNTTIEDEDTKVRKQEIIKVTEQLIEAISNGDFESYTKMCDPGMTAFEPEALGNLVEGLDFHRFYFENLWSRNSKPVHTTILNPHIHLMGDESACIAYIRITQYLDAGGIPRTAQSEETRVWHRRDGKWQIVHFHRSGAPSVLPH
Read-out: enzyme activity
Mode: inhibitor
Tested at: 10 µM
Measurement: inhibition
COC1OC(COS(=O)(=O)O)C(OC2OC(C(=O)O)C(OC)C(O)C2OS(=O)(=O)O)C(O)C1NS(=O)(=O)O (centres unmarked): -11%
CC[C@H]1OC(=O)[C@H](C)[C@@H](O[C@H]2C[C@@](C)(OC)[C@@H](O)[C@H](C)O2)[C@H](C)[C@@H](O[C@@H]2O[C@H](C)C[C@H](N(C)C)[C@H]2O)[C@](C)(OC)C[C@@H](C)C(=O)[C@H](C)[C@@H](O)[C@]1(C)O: 0%
COc1ccnc(C[S+]([O-])c2nc3cc(-n4cccc4)ccc3[nH]2)c1C (centres unmarked): -11%
O=c1c2cc(O)c(O)cc2oc2cc(O)c([C@@H]3O[C@H](CO)[C@@H](O)[C@H](O)[C@H]3O)c(O)c12: -17%
C[C@@H]1O[C@@H](O[C@@H]2[C@@H](O)[C@H](O)[C@@H](CO)O[C@H]2c2c(O)cc(O)c3c(=O)cc(-c4ccc(O)cc4)oc23)[C@H](O)[C@H](O)[C@H]1O: 5%
C[C@]12C=CC(=O)C=C1CC[C@@H]1[C@@H]2C(=O)C[C@@]2(C)[C@H]1CC[C@]2(O)C(=O)CO: -8%
Cn1ccc(=O)n(C)c1=O: 19%
Cc1c(C)c2c(c(C)c1O)CC[C@@](C)(CCC[C@H](C)CCC[C@H](C)CCCC(C)C)O2: -0.01%
NCCC(=O)O: 8%

For quick reference, copied from above (sample 2):
TXK (Homo sapiens, UniProt P42681); 10 µM: 100%
PRKG1 (Homo sapiens, UniProt Q13976); 10 µM: < 50%
COQ8A (Homo sapiens, UniProt Q8NI60); 1 µM: < 50%
CSNK2A1 (Homo sapiens, UniProt P68400); 10 µM: < 50%
CAMK2G (Homo sapiens, UniProt Q13555); 10 µM: < 50%
Non-receptor tyrosine-protein kinase TYK2, JH2 pseudokinase domain (TYK2, Homo sapiens, UniProt P29597); 10 µM: 70%
